Results from different studies.
A part holds a random share of what one study measured. Substitutions count along the parent as printed.

Set 1
Substance: PhoQ, residues 284 288 289 292 302 303 SACGEM
Technique: Sort-seq
Item: YFP reporter
Matrix: E. coli
Notes: PhoQ-PhoP variant library
With: 10 µM Mg2+
Reference: high Mg2+ state
Direction: higher = stronger signaling
The fold induction was 20.2 (PhoP, residues 12 14 15 18 19 TQAML (Escherichia coli, UniProt P23836)).
For PhoP, residues 12 14 15 18 19 NQCAL (Escherichia coli, UniProt P23836): fold induction read 13.8.
It gave 17.7 for fold induction (PhoP, residues 12 14 15 18 19 LHTVL (Escherichia coli, UniProt P23836)).

Set 2
Target: Phosphate system positive regulatory protein PHO4, full length, GST-tagged (PHO4, Saccharomyces cerevisiae, UniProt P07270, residues 1-312)
Technique: competition protein-binding microarray
Molecule type: double-stranded DNA, one strand shown
Matrix: in vitro
Tested at: 2 µM
Notes: whole 60-bp probe, lowest competitor level
With: Cbf1 competitor, 0.05 µM
Direction: higher = stronger binding
All sequences stand within: … GTCTTGATTCGCTTGACGCTGCTG
Residues (chain): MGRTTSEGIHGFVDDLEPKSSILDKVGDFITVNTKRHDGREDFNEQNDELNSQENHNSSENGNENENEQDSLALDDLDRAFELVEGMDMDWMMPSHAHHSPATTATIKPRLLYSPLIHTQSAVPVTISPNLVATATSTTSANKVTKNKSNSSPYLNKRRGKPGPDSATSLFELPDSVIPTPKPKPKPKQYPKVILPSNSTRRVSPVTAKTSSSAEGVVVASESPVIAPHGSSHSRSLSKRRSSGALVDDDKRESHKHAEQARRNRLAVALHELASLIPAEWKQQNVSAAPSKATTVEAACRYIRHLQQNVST
The fluorescence intensity of `ATAGTCAATGAAACATTCGTGACGGAACAATGAGAT` is reported as 5460 a.u.
With `ACACCAAATCCGAGTCACGTTCCTTCTTGATTAGTG` the fluorescence intensity was 15400 a.u.
With `ACCTTTTGAATATATCATGTGTTTGTTCTGCTATCT` the fluorescence intensity was 9760 a.u.
`TAGCCCCAAAATCCACACGTGACGGAAATGATTTAG` gave a fluorescence intensity of 13900 a.u.
With `TTGCTAGATTCGACGACCGTGTCTGTGGTAATATTT` the fluorescence intensity was 6110 a.u.
`GTAGTCCTCTTTCGTCACGTCAAAATTTCAGATCCT` gave a fluorescence intensity of 2990 a.u.
`CTTTCCCGATCTTGTCACAGGACTTTAGCACATTTG` has a fluorescence intensity of 4170 a.u.
`AGGAACGCTTAAAACATCGTGGAGTGAGTGTGGTAA` gave a fluorescence intensity of 8500 a.u.
With `TAGGATGACCGTCACCATGTGATCCAAATGCACTCA` the fluorescence intensity was 8720 a.u.
With `TCTAACATATCCTTTCTCATGACAGTATTCATGGAT` the fluorescence intensity was 4810 a.u.
`GTCTTGTCTCATTTTCACGTGAGCTTCCCCACTTCA` gave a fluorescence intensity of 9550 a.u.
For `TAATAATTAGCCCTTCACGTGATGGCAGCCAGTTGT`, the fluorescence intensity was 11100 a.u.
With `AAAGTTGGGTGTCTGCGTGTGTGTATGTTTCCAATT` the fluorescence intensity was 9030 a.u.
`TGCAGAAGGGGACGATAATAAGACCAAATATTCTTG` has a fluorescence intensity of 2980 a.u.
The fluorescence intensity of `GATATCCTTTCCCATCACGTGAAGGGTGTTTCGCTG` is reported as 12300 a.u.
For `TACGCCTGTACTACCCACGTTGCCCCAGAACGTCCC`, the fluorescence intensity was 16100 a.u.
`GAGCCCGTAATCCAACACGTTTGATATTTTGTGCGA` gave a fluorescence intensity of 9880 a.u.

Set 3
Target: RNA binding protein fox-1 homolog 2, RRM domain, GST-SBP tag (RBFOX2, Homo sapiens, UniProt O43251-10, residues 100-194)
Technique: RNA Bind-n-Seq
Molecule type: RNA
Matrix: in vitro
Tested at: 365 nM
Notes: natural RNA segment, single round, ends assumed
Reference: no-protein control
Direction: higher = stronger binding
All sequences stand within: GGGAGUUCUACAGUCCGACGAUC … UGGAAUUCUCGGGUGCCAA
Target sequence (chain): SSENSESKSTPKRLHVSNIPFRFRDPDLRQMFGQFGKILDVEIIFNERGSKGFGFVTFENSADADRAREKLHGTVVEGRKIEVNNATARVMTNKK
For `UAGGAAUACUCCUAAAACAGAUAUUGCCAACUAGAUACACUGCCUCAAUCUUGACCAGACAAGAGAACAGUUAAGUUCUCUCAGUUGGGUAGUAACUUGAAUACCAGUCU`, “RBNS enrichment (R)” read 0.256.
For `ACAUGACUCUGGAAGGCGACGACCUCAUCCUAGAGAUUGAUGAUCUUACUCCAGCCUGGCAGCCUGGCCGACCCUACCCCAAGCCUCUCAACAGAAGCUGUGCAGCCAGG`, “RBNS enrichment (R)” read 0.338.
Under “RBNS enrichment (R)”, `GCACCAACCCCAGCUCGACCCUUCCAAUCUUCCCUGCACUGCCGCUGCCCGCUGGGGACCAGUUCCCACGAGCCUGUCACACCCCAGUCCUGUGUUACAAUUUUUCGUUU` is recorded as 0.948.
For `AAAAUUUGGAAAUGUAUGCCAGCAAAAUGUGAGCUCUGUAUUUUUUGGCAUUCUUAUGUUUGGGUUUAAUAAGAUUAAGAAAAUGAUACUGGGAAUUUUCUUUUUCCUGA`, “RBNS enrichment (R)” read 7.03.
`AAUAUUUAUUUUGCCUCAUUUACUUUAUUUUCAGUUUUAGAUGAGGUGAAGGUUUUCUUUCAGUUAGGGUACUUGGCAAGGUCCAUUCUAGUGUAGCUGAAGAGGAAGCU`: “RBNS enrichment (R)” 0.427.
For `ACACACAUCUUGCUAGACUAGUAUAAAAAUCAUUGGGUAAUUGUUGGUUCUAAUGACCUGAAAGGUGUUCAGUUUUUGUUCUUGGUUUUGUUUUGUUUUUGAUUUCUUGG`, “RBNS enrichment (R)” read 0.829.
For `GGAGACUGUCUGGUGUCAUGACUGAAUCGCCACCUCUCUGGAAGGUGUACCGUCCUCAGGAAGCCAGAAGGUUUUGUUUUGUUUUUUUCUAUGGUUCUCAUUUUCACCCU`, “RBNS enrichment (R)” read 1.12.
Under “RBNS enrichment (R)”, `GUCAGUAGCCCUAACCUCACUAACUGACAUACUCCCAAACCAGGCUUCUUGGGCCAGGUCUGUCCCAUGAGUCAAAUUUAGGAAAGCAAGGAUAGGUUUUGUCAUAGAUA` is recorded as 0.385.
For `UAUUUAAAAUGAAAUUUAAUGAGCACUUAGUGACUUCAUUUGUUCAAGAAUAUUUGAUUUCCUAUUGUGUGCAUGGGAGGUUUACAAAAGACAGACUGUCCCUAUGCUUG`, “RBNS enrichment (R)” read 0.669.
`GGUCCUCUGGAGAACUCUUCGUGAGCACUGGUGCCGUGACCCACUUGGGAUCUCUGCUGUGCCCUUCUCGGGCUUCCAGACCAGGUGUAGCAAAUGAAAAAGUGCAGUUA` — result for “RBNS enrichment (R)”: 0.229.
For `GUUUUUGGUUGAUAGUUGAGCAAACUGACAUUACAGAAAGUGCCUUAGACACUACAGUACUAAGACAAUGUUAAAUAUAUUAUUUGCCUCUAUAACAACUUAAUGUAUUA`, “RBNS enrichment (R)” read 0.364.
Under “RBNS enrichment (R)”, `UUGAUGAAGAAAUGACAUAUAUUAUCUUUGAAUAUCUACAAGGAAAGUUACCAACUUAUGUAGGGGUGAAAUUUGGAUAGGCGGUAUGCUCAAAGCAGCCAGCAAUGAGU` is recorded as 0.483.

Set 4
Target: CCNB1, cyclin fold, Cln2 fusion (human)
Technique: yeast growth competition, sequencing
Matrix: yeast
Notes: weak parent motif
Reference: not given
Direction: higher = stronger binding
Parent: TICRR docking peptide (human); TKVRRNLFNQELL
`L7A` — result for “normalised enrichment score”: 0.0923.
For `F8L`, “normalised enrichment score” read 0.628.
`F8A`: “normalised enrichment score” -0.435.
`K2A` — result for “normalised enrichment score”: 1.48.
For `L12A`, “normalised enrichment score” read 0.808.
For `L13A`, “normalised enrichment score” read 1.15.
`R5A`: “normalised enrichment score” 0.56.

Excerpt of the above (set 1):
The fold induction was 20.2 (PhoP, residues 12 14 15 18 19 TQAML (Escherichia coli, UniProt P23836)).
For PhoP, residues 12 14 15 18 19 NQCAL (Escherichia coli, UniProt P23836): fold induction read 13.8.
It gave 17.7 for fold induction (PhoP, residues 12 14 15 18 19 LHTVL (Escherichia coli, UniProt P23836)).
